Results collected from several papers.
A part holds a random share of what one study measured.

Study 1 — method: aptamer microarray, sandwich; molecule type: DNA with 2'F-ANA; sample: in vitro; concentration: 200 nM; added: Cy3 exosite-II aptamer, 400 nM; direction: higher = stronger binding; strand: GGTTGGTGTGGTTGG
Target: Prothrombin, mature alpha-thrombin (F2, Homo sapiens, UniProt P00734)
Notes: whole 15-mer aptamer, many near background
Modification	mean fluorescence intensity [a.u.]
2'F-ANA at 2 5 6 7 8 11 14 15	47.8
2'F-ANA at 2 3 11 13 14 15	344
2'F-ANA at 2 3 4 8 9 12 15	724
2'F-ANA at 5 7 8 12 13 14 15	46.9
2'F-ANA at 3 9 11 12 13 15	1180
2'F-ANA at 2 3 5 6 7 8 9 10 11 12	62
2'F-ANA at 1 3 7 10 12 14	63.3
2'F-ANA at 1 4 5 7 9 11	51.3
2'F-ANA at 2 4 5 9 11 12 14	47
2'F-ANA at 4 6 8 9 14	82.5
2'F-ANA at 2 5 7 8 11 12 13 15	102
2'F-ANA at 1 2 3 8 9 13 14 15	120
2'F-ANA at 1 3 4 5 6 8 11 12 14 15	48.3
2'F-ANA at 2 4 5 6 7 8 9 11 14	49.5
2'F-ANA at 5 6 8 9 10 11 12 14	50
2'F-ANA at 2 4 5 6 8 9 10 14 15	51.6
2'F-ANA at 2 3 6 7 8 10 13 14 15	250
2'F-ANA at 1 2 4 7 13	89.4
2'F-ANA at 1 2 4 5 6 7 10 11 12 15	52.8
2'F-ANA at 2 4 5 8 13	54.2
2'F-ANA at 2 3 4 6 12 13 15	539
2'F-ANA at 1 5 12 13 15	79.4
2'F-ANA at 1 2 6 7 8 15	202
2'F-ANA at 1 3 4 6 10 14	58.7

Study 2 — method: protein binding microarray; molecule type: double-stranded DNA, one strand shown; sample: in vitro; concentration: not given; baseline: not given; direction: higher = stronger binding
Target: Histone acetyltransferase KAT6A, winged helix 2, GST fusion (KAT6A, Homo sapiens, UniProt Q92794, residues 85-181)
Notes: 8-mer, flanks averaged, mean of 2 arrays, mostly near background
Residues (chain): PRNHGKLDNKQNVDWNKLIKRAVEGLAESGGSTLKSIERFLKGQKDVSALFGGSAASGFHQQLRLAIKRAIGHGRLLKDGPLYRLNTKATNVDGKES
Strand	E-score
ATAATCCA	-0.0673
CATTCTGA	0.0609
ATGCCGTA	0.0873
GCGTGACC	0.0829
GGTCGAAA	-0.128
AGATAGCA	0.0563
CAAGCGGC	0.167
AGGTGAGG	0.107
AGGACCCC	-0.15
GGAGATAC	0.0827
CAATTAGA	0.108
CGGGTCTA	-0.0412
ATGAATGC	0.0614
CGGATAGC	0.0163
AAGCAGGG	0.0917
ATAGATAG	-0.168
CCTTTTTC	0.108
GCATACAC	0.0676
CCAATGGC	-0.0502
CTGTGTGA	-0.00382
ACCCCTAC	-0.327
ACAGGCGC	0.0612
AAACACCC	0.0374
AATCCCCC	-0.0855

Study 3 — method: RNA Bind-n-Seq; molecule type: RNA; sample: in vitro; concentration: 365 nM; baseline: no-protein control; direction: higher = stronger binding
Target: RNA binding protein fox-1 homolog 2, RRM domain, GST-SBP tag (RBFOX2, Homo sapiens, UniProt O43251-10, residues 100-194)
Notes: natural RNA segment, single round, ends assumed
Shared flanks, not repeated: GGGAGUUCUACAGUCCGACGAUC … UGGAAUUCUCGGGUGCCAA
Construct (chain): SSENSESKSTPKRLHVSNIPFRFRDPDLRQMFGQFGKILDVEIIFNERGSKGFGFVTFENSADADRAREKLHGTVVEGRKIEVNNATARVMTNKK
Strand	RBNS enrichment (R)
GUUUUUCUAAGGGUCAACUCAGACUGCCCUGUACCCUGGAAAAAUAGCAAUAGCAGCCCCAUCUACCCUUUGAGUCCUCAACUAAACACCAGUGGGAAGAGAACCGUUCC	0.288
GUGGGCAUUUCCUCCUCCUGUGAGCCUUGCAGCCCUUGUAUGGCGGCUUUGGUCUGGGCAGUGCAUGUGUUAGUAGUGUACGUGGGCAGGUCGGGCUUUCUAAGCUUUGU	3.96
UCAUCGUCUUCCUUUUAUAGCUGUUUUACUUCAUUGAAUACGAUCAUGUACCCAGUGUUAACUCUUUGUUGUUGUCCCUUUCAAAUAUGGAUAACUCUGUGAACAGUCUU	0.309
CCCUUUGAGCCCCCAGAUGGUAUUGCAGCUUCACUGCCUGCGUUCCUGGGAGCGUCUGGAGCUCACAGUGAUCAGUGACCACAUCAUUCUCUCUGAGCAGAGGAGCAGGA	0.587
AUUAUUUCUCACAACUAGUUCUCUACGAGAGAUUUUGUUUCUACAAUGUAGUCAGCACUUAAUGGAGAGUAUGGAGUAGUGCAUUUUGCAGGGAUUUUUAUUCCGUCUUU	0.464
CUUCUUGACAUUUAUCUUUAUAAAAAUUGUGUAUUUUAUUCCAACUUGUUAAACUAAGAGAAAAUGCUUUUGUUGUGUGUUCUUUUAACACAAACAUGGAGAAAAGCUGU	0.385
CGCUAUAGCUUUCUGUUGGCAAAUUUUCUCAAAAGCACUCUCUUUAAUCAGAUUAACUUCUUAAACUGCUUAAUUCUCAUCGCUUCUUAAAACUAGGGUGGUUUGCAGGU	0.412
AUCCCACUGCAGUGAUGGAUAUGCAUCUUUUACUUCUUGCUCCUUCUGCCCCUGGGUCCAUGUAUCCACCUAGCUCUGGUACCCUCCAGAGGUGCCAUCUCUACCUCUGA	1.41

Study 4 — method: competition protein-binding microarray; molecule type: double-stranded DNA, one strand shown; sample: in vitro; concentration: 2 µM; added: Cbf1 competitor, 0.05 µM; direction: higher = stronger binding; shared flanks, not repeated: … GTCTTGATTCGCTTGACGCTGCTG
Target: Phosphate system positive regulatory protein PHO4, full length, GST-tagged (PHO4, Saccharomyces cerevisiae, UniProt P07270, residues 1-312)
Notes: whole 60-bp probe, lowest competitor level
Residues (chain): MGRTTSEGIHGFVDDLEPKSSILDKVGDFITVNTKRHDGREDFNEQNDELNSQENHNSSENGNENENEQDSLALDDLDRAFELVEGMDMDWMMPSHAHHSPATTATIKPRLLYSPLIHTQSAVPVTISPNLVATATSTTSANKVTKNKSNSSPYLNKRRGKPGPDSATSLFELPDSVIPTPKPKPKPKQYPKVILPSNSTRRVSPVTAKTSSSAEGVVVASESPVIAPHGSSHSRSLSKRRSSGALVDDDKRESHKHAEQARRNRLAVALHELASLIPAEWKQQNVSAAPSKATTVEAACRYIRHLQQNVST
Strand	fluorescence intensity
CTTTCCCGATCTTGATCTGTGGGTGTAGCACATTTG	4480 a.u.
TTGCGGGTATCGTTGCCCGTGTCCTTGTCAATGAAG	7300 a.u.
AATGAAGAAAGTTAAACCGTGATGGATTACTTCTTG	5100 a.u.
TGTCTTATCTGCTCCTTTGTGATATTACGGTCTCAA	3770 a.u.
AGTATAGAGTTTCGGCACGGGTGGCAGCGTTCAAAG	9420 a.u.
AGGGCATTGTCTACTCACGTGGTAATCAAATTCCAG	14700 a.u.
CATACCCAACCTTGTCACACAACTTAAGATATTTGT	4380 a.u.
GGTTTCTTATCAAGTGGCGTGCCAGGGCATCTACCA	6860 a.u.
GGTAAATCACCTATAGACGTGCGATGCAATAACCCT	5840 a.u.
GTAAAACGCCTCTTCCACGTTGATTGCTTGCTTAGC	10200 a.u.
TTGGTGAGCATTACCTACGTGTTGGGCACTACAACA	5210 a.u.
CCTGCCCGGTCTCCACACGTGGGTAGCCAGAGCCCG	19000 a.u.
CCGGTATCTTTCCAAATCGTGCCGATGCTTGGAACC	7170 a.u.
GTCGTCATCCTCCAAGCCGTGATGGTCATCTTCTTC	3720 a.u.
CTTTGCCTTCTTCTCCACATGGAATTACTATTTTCA	6060 a.u.
CATGCTGTAGCTATCGTCGTGATGGCTTTTACTGGC	5110 a.u.
GGTACTCGCTGTTTGCACGTGGCAAAGACCCCATTT	16600 a.u.
CTTTCCCGATCTTGACATGTGGGTGTAGCACATTTG	11800 a.u.
CTTTCCCGATCTTTTCACGTGGTGTTAGCACATTTG	16400 a.u.

Some of these lines once more (study 1):
Modification	mean fluorescence intensity [a.u.]
2'F-ANA at 2 3 11 13 14 15	344
2'F-ANA at 2 3 4 8 9 12 15	724
2'F-ANA at 5 7 8 12 13 14 15	46.9
2'F-ANA at 3 9 11 12 13 15	1180
2'F-ANA at 2 3 5 6 7 8 9 10 11 12	62
2'F-ANA at 1 3 7 10 12 14	63.3
2'F-ANA at 1 4 5 7 9 11	51.3
2'F-ANA at 2 4 5 9 11 12 14	47
2'F-ANA at 4 6 8 9 14	82.5
2'F-ANA at 2 5 7 8 11 12 13 15	102
2'F-ANA at 1 2 3 8 9 13 14 15	120
